Published values of several laboratories.
Lines come from different studies, so protocols differ.

SMILES | test | test system | conditions | quantity | result
Cc1cc2c(cc1O)C=C1C=CC(=O)C(C)(C)[C@H]1CC2 | – | C57BL/6J mouse both sexes | oral gavage, single dose | maximum tolerated dose | ≤ 1000 mg/kg
CCCCCCCCC=CCCCCCCCC(=O)OCC1OC(n2ccc(N)nc2=O)C(F)(F)C1O (stereo not drawn) | – | BALB/c nude mouse | intraperitoneal, every 3 days, five doses, <10% weight loss | maximum tolerated dose | 40 mg/kg
COc1cc2c(C=C3C(=O)Nc4ccccc43)c[nH]c2cc1C | – | female athymic nude mouse | intraperitoneal | maximum tolerated dose | 400 mg/kg
CN(C)C(CNC(=O)Nc1cc(C(F)(F)F)ccc1N1CCOCC1)c1ccncc1 (stereo not drawn) | – | C57BL/6J mouse | intraperitoneal, 14 days | maximum tolerated dose | 240 mg/kg
CC[C@H](C)[C@H](NC(=O)CN)C(=O)NCC(=O)N[C@@H](C)C(=O)N[C@H](C(=O)N[C@@H](CC(C)C)C(=O)N[C@@H](CCCCN)C(=O)N[C@H](C(=O)N[C@@H](CC(C)C)C(=O)N[C@H](C(=O)N[C@H](C(=O)NCC(=O)N[C@@H](CC(C)C)C(=O)N1CCC[C@H]1C(=O)N[C@@H](C)C(=O)N[C@@H](CC(C)C)C(=O)N[C@H](C(=O)N[C@@H](CO)C(=O)N[C@@H](Cc1c[nH]c2ccccc12)C(=O)N[C@H](C(=O)N[C@@H](CCCCN)C(=O)N[C@@H](CCCNC(=N)N)C(=O)N[C@@H](CCCCN)C(=O)N[C@@H](CCCNC(=N)N)C(=O)N[C@@H](CCC(N)=O)C(=O)N[C@@H](CCC(N)=O)C(N)=O)[C@@H](C)CC)[C@@H](C)CC)[C@@H](C)O)[C@@H](C)O)C(C)C)C(C)C | – | mouse | intratumoral | maximum tolerated dose | 5.7 mg/kg
C[C@@H](c1ccccc1)N(CC(N)=O)C(=O)CN(C(=O)CN(CCCCN)C(=O)CN(C(=O)CN(C(=O)CN(CCCCN)C(=O)CN(C(=O)CN(C(=O)CN(CCCCN)C(=O)CN(C(=O)CN(C(=O)CNCCCCN)[C@@H](C)c1ccccc1)[C@@H](C)c1ccccc1)[C@@H](C)c1ccccc1)[C@@H](C)c1ccccc1)[C@@H](C)c1ccccc1)[C@@H](C)c1ccccc1)[C@@H](C)c1ccccc1 | – | mouse | – | maximum tolerated dose | 2.5 mg/kg
O=C1C(P(=O)(O)O)CCCN1O (stereo not drawn) | – | nude mouse | intravenous, without neutralization | maximum tolerated dose | ≤ 75 mg/kg
CCN(CCCCOc1ccc(CCC(=O)N2CCC(Cc3ccccc3)CC2)cc1O[11CH3])Cc1ccccc1 | PET-CT | mouse, brain | intravenous | maximum brain uptake | 7 %ID/cc
CN1CCN(c2ccc(Nc3ncc(Cl)c(Nc4ccccc4NS(=O)(=O)C4CC4)n3)cc2)CC1 | – | Kunming mouse, both sexes | intravenous, 72 h | maximum safe dose | < 100 mg/kg
